Experimental data of several laboratories.
Compare with care: the assays were run in different laboratories.
Organism: Escherichia coli

`CCC(CC)c1cc(CCN2CCCNCC2)nc(-c2cccnc2)n1` has an MIC of over 64 µg/mL (microbial growth, broth dilution; ATCC25922).
For `COc1c(NC(=O)c2ccc(NC(=O)c3ccc(NC(=O)[C@H](CC#N)NC(=O)c4ccc(NC(=O)/C(C)=C/c5ccc(O)cc5)cc4)cc3)c(OC)c2O)ccc(C(=O)O)c1O`, the MIC was 0.031 µg/mL (broth microdilution; ciprofloxacin-sensitive).
For `Cc1n[nH]c2nc(N)[nH]c(=O)c2c1=O`, the MIC was 25 µg/mL (microbial growth, broth dilution; BW25113; 18 h).
`CC[C@H]1OC(=O)[C@H](C)C(=O)[C@H](C)[C@@H](O[C@@H]2O[C@H](C)C[C@H](N(C)C)[C@H]2O)[C@](C)(OC)C[C@@H](C)C(=O)[C@H](C)[C@H]2N(CCCCn3cnc(-c4cccnc4)c3)C(=O)O[C@]12C` has an MIC of over 32 µg/mL (microbial growth; ATCC25922).
With `CC[C@H](C)[C@H](NC(=O)[C@@H](CCCNC(=N)N)NC(=O)[C@H](CCCNC(=N)N)NC(=O)[C@@H]1CCCN1C(=O)[C@@H]1CCCN1C(=O)[C@H](CCCNC(=N)N)NC(=O)[C@@H]1CCCN1C(=O)[C@H](CCCNC(=N)N)NC(=O)[C@@H]1CCCN1C(=O)[C@H](CC(C)C)NC(=O)[C@H](Cc1ccc(O)cc1)NC(=O)[C@@H]1CCCN1C(=O)[C@@H]1CCCN1C(=O)[C@H](CCCCN)NC(=O)[C@H](CC(=O)O)NC(=O)[C@@H](N)C(C)C)C(=O)N[C@@H](Cc1ccc(O)cc1)C(=O)N[C@@H](CC(N)=O)C(=O)N[C@H](CCCNC(=N)N)C(N)=O` the MIC was 8 µg/mL (broth microdilution; MC4100; 18 h, 37 °C, 25% MHB2).
`CC(C(=O)O)c1nn(C)c2nc(N)[nH]c(=O)c2c1=O` (centres unmarked) has an MIC of over 100 µg/mL (microbial growth, broth dilution; BW25113; 18 h).
With `Oc1c(Br)cc(Br)c2nc3c(C(F)(F)F)cc(C(F)(F)F)cc3nc12` the MIC was over 100 µM.
`CC(C)C[C@@H]1NC(=O)[C@@H](CC(C)C)NC(=O)[C@H](CCN)NC(=O)[C@@H](NC(=O)[C@H](CCN)NC(=O)[C@@H](NC(=O)CCCCN=[N+]=[N-])[C@@H](C)O)CCNC(=O)[C@H]([C@@H](C)O)NC(=O)[C@H](CCN)NC(=O)[C@H](CCN)NC1=O` gave an MIC of 8 µg/mL (broth microdilution; ATCC 25922; 18 to 20 h).
The MIC of `COc1cc(C(=O)Nc2ccc(C(=O)O)c(O)c2OC)ccc1NC(=O)c1ccc(NC(=O)[C@H](Cc2c[nH]nn2)NC(=O)c2ccc(NC(=O)/C(C)=C/c3ccc(O)cc3)cc2)cc1` is reported as 0.125 µg/mL (broth microdilution; DSM 1116).
With `CCCCCC[N+](C)(C)CCCCCCCCOc1cc(OCCCCCCCC[N+](C)(C)CCCCCC)cc(OCCCCCCCC[N+](C)(C)CCCCCC)c1.[Br-].[Br-].[Br-]` the MIC was 1 µM (MC4100).
`C=CCO/N=C(\C(=O)N[C@@H]1C(=O)N(OS(=O)(=O)O)C1(C)C)c1csc(N)n1` has an MIC of 0.25 µg/mL (agar dilution; 16-1, ESBL-producing).
`COc1ccc2ccc(O)c(/C=N/[C@H]3CCCC[C@H]3/N=C/c3c(C)cccc3O)c2c1` gave an MIC of over 40 µM (microbial growth, broth dilution; clinical isolate).
For `CC[C@H](C)[C@@H]1NC(=O)[C@@H](CC(C)C)NC(=O)[C@H](CCN)NC(=O)[C@@H](NC(=O)[C@@H](CO)NC(=O)[C@@H](NC(=O)[C@H](CCN)NC(=O)c2ccc(-c3ccccc3)cc2)[C@@H](C)O)CCNC(=O)[C@H](CC(C)C)NC(=O)[C@H](CCN)NC(=O)[C@H](CCN)NC1=O`, the MIC was 4 to 8 µg/mL (broth microdilution; ATCC 25922, colistin-susceptible).
With `COc1c(NC(=O)c2ccc(NC(=O)[C@H](Cc3c[nH]nn3)NC(=O)c3ccc(NC(=O)/C(C)=C/c4ccc(O)cc4)cc3)cc2)ccc(C(=O)Nc2ccc(C(=O)O)cc2)c1O` the MIC was 0.5 µg/mL (broth microdilution; ciprofloxacin-resistant).
`C#CCO/N=C(\C(=O)N[C@@H]1C(=O)N(OS(=O)(=O)O)C1(C)C)c1nsc(N)n1` has an MIC of 4 µg/mL (agar dilution; 16-1, ESBL-producing).
`COc1c(NC(=O)c2ccc(NC(=O)c3ccc(NC(=O)[C@H](Cc4c[nH]nn4)NC(=O)c4ccc(NC(=O)/C(C)=C/c5ccc(O)cc5)cc4)cc3)cc2)ccc(C(=O)O)c1O` has an MIC of 0.25 µg/mL (broth microdilution; ciprofloxacin-sensitive).
`CC[C@H](C)[C@H](NC(=O)[C@@H](CCCNC(=N)N)NC(=O)[C@H](CCCNC(=N)N)NC(=O)[C@@H]1CCCN1C(=O)[C@@H]1CCCN1C(=O)[C@H](CCCNC(=N)N)NC(=O)[C@@H]1CCCN1C(=O)[C@H](CCCNC(=N)N)NC(=O)[C@@H]1CCCN1C(=O)[C@H](CC(C)C)NC(=O)[C@H](Cc1ccc(O)cc1)NC(=O)[C@@H]1CCCN1C(=O)[C@@H]1CCCN1C(=O)[C@H](CCCNC(=N)N)NC(=O)[C@H](CC(=O)O)NC(=O)[C@@H](N)C(C)C)C(=O)N[C@@H](Cc1ccc(O)cc1)C(=O)N[C@@H](CC(N)=O)C(=O)N[C@H](CCCNC(=N)N)C(N)=O` has an MIC of 8 µg/mL (broth microdilution; BW25113; 18 h, 37 °C, 25% MHB2).
The MIC of `CN[C@H](CC(C)C)C(=O)N[C@H]1C(=O)N[C@@H](CC(N)=O)C(=O)N[C@H]2C(=O)N[C@H]3C(=O)N[C@H](C(=O)N[C@H](C(=O)NCC(N)=O)c4cc(O)cc(O)c4-c4cc3ccc4O)[C@H](O)c3ccc(c(Cl)c3)Oc3cc2cc(c3O[C@@H]2O[C@H](CO)[C@@H](O)[C@H](O)[C@H]2O[C@H]2C[C@](C)(NCc3ccc(OCc4cn(CC(=O)N[C@H](C(=O)N[C@@H](CCN)C(=O)N[C@H]5CCNC(=O)[C@H]([C@@H](C)O)NC(=O)[C@H](CCN)NC(=O)[C@H](CCN)NC(=O)[C@H](CC(C)C)NC(=O)[C@@H](CC(C)C)NC(=O)[C@H](CCN)NC5=O)[C@@H](C)O)nn4)c(OC)c3)[C@H](O)[C@H](C)O2)Oc2ccc(cc2Cl)[C@H]1O` is reported as 16 µg/mL (broth microdilution; ATCC 25922; 18 to 20 h).
`CC1(C)[C@H](NC(=O)/C(=N\OCc2c(Cl)cccc2Cl)c2nsc(N)n2)C(=O)N1OS(=O)(=O)O` has an MIC of 4 µg/mL (agar dilution; 16-1, ESBL-producing).
The MIC of `COc1c(NC(=O)c2ccc(NC(=O)[C@H](Cc3c[nH]nn3)NC(=O)c3ccc(NC(=O)/C(C)=C/c4ccc(O)cc4)cc3)cc2)ccc(C(=O)Nc2ccc(C(=O)O)c(O)c2)c1O` is reported as 0.125 µg/mL (broth microdilution; DSM 1116).
`N=C(N)NCCC[C@@H]1NC(=O)[C@@H](CCCNC(=N)N)NC(=O)[C@H](CCCNC(=N)N)NC(=O)[C@@H](C(c2ccccc2)c2ccccc2)NC(=O)[C@@H](C(c2ccccc2)c2ccccc2)NC(=O)[C@@H](C(c2ccccc2)c2ccccc2)NC(=O)[C@@H](CCCNC(=N)N)NC1=O` gave an MIC of 32 µg/mL (ATCC 25922).
With `CC[C@H]1OC(=O)[C@H](C)[C@@H](OC(=O)Cc2ccc(C(F)(F)F)cc2)[C@H](C)[C@@H](O[C@@H]2O[C@H](C)C[C@H](N(C)C)[C@H]2O)[C@](C)(OC)C[C@@H](C)C(=O)[C@H](C)[C@@H](O)[C@]1(C)O` the MIC was over 32 µg/mL (lpxC).
`CCOc1c(NC(=O)c2ccc(NC(=O)c3ccc(NC(=O)[C@H](Cc4c[nH]nn4)NC(=O)c4ccc(NC(=O)/C(C)=C/c5ccc(O)cc5)cc4)cc3)c(OC)c2O)ccc(C(=O)O)c1O` gave an MIC of 0.031 µg/mL (broth microdilution; DSM 1116).
For `C=CCOc1c(C)c(OC)c(C(=O)/C=C/c2ccccc2)c(OCC=C)c1C`, the MIC was 5000 µg/mL (microbial growth, broth dilution; ATCC25922).
`C[C@H](CS)C(=O)Nc1cccc(-c2nn[nH]n2)c1` has an MIC of under 0.125 µg/mL (broth microdilution, item: meropenem; DH5α pET28-lacUV5 control; 50 µM, added: meropenem).
For `CC[C@H]1OC(=O)[C@H](C)[C@@H](OC(=O)Cc2ccccc2Cl)[C@H](C)[C@@H](O[C@@H]2O[C@H](C)C[C@H](N(C)C)[C@H]2O)[C@](C)(OC)C[C@@H](C)C(=O)[C@H](C)[C@@H](O)[C@]1(C)O`, the MIC was over 32 µg/mL (lpxC).
`COc1ccc2ccc(O)c(/C=N/[C@H]3CCCC[C@H]3/N=C/c3c(O)cccc3OC)c2c1` has an MIC of over 40 µM (microbial growth, broth dilution).
The MIC of `CC(=O)NC[C@H]1CN(c2ccc(N3CCN(C(=O)CN)CC3)c(F)c2)C(=O)O1` is reported as over 200 µM (microbial growth, broth dilution; K12, MG1655).
The MIC of `CN[C@H](CC(C)C)C(=O)N[C@H]1C(=O)N[C@@H](CC(N)=O)C(=O)N[C@H]2C(=O)N[C@H]3C(=O)N[C@H](C(=O)N[C@H](C(=O)NCc4cn(CC(=O)N[C@H](C(=O)N[C@@H](CCN)C(=O)N[C@H]5CCNC(=O)[C@H]([C@@H](C)O)NC(=O)[C@H](CCN)NC(=O)[C@H](CCN)NC(=O)[C@H](CC(C)C)NC(=O)[C@@H](CC(C)C)NC(=O)[C@H](CCN)NC5=O)[C@@H](C)O)nn4)c4cc(O)cc(O)c4-c4cc3ccc4O)[C@H](O)c3ccc(c(Cl)c3)Oc3cc2cc(c3O[C@@H]2O[C@H](CO)[C@@H](O)[C@H](O)[C@H]2O[C@H]2C[C@](C)(N)[C@H](O)[C@H](C)O2)Oc2ccc(cc2Cl)[C@H]1O` is reported as 16 µg/mL (broth microdilution; ATCC 25922; 18 to 20 h).
With `CCOc1c(NC(=O)c2ccc(NC(=O)c3ccc(NC(=O)[C@H](Cc4c[nH]nn4)NC(=O)c4ccc(NC(=O)/C(C)=C/c5ccc(O)cc5)cc4)cc3)c(OCC)c2O)ccc(C(=O)O)c1O` the MIC was 0.016 µg/mL (broth microdilution; BW25113).
With `CC(C)Oc1c(NC(=O)c2ccc(NC(=O)C(CC(N)=O)NC(=O)c3ccc(NC(=O)c4ccc(C#N)cc4)cc3)cc2)ccc(C(=O)Nc2ccc(C(=O)O)cc2)c1O` (centres unmarked) the MIC was 0.1 µg/mL (microbial growth; BW25113).
With `c1ccc(CN2CCOCCOCCN(CCCCCCCCCCN3CCOCCOCCN(CCCCCCCCCCN4CCOCCOCCN(Cc5ccccc5)CCOCCOCC4)CCOCCOCC3)CCOCCOCC2)cc1` the MIC was 35 µM (tetracycline-resistant (pBR322)).
`CC[C@H]1OC(=O)[C@H](C)[C@@H](OC(=O)Cc2c(F)cccc2F)[C@H](C)[C@@H](O[C@@H]2O[C@H](C)C[C@H](N(C)C)[C@H]2O)[C@](C)(OC)C[C@@H](C)C(=O)[C@H](C)[C@@H](O)[C@]1(C)O` has an MIC of 32 µg/mL (lpxC).
`C/C(=C\c1ccc(O)cc1)C(=O)Nc1ccc(C(=O)N[C@@H](Cc2c[nH]nn2)C(=O)Nc2ccc(C(=O)Nc3ccc(C(=O)Nc4ccc(C(=O)O)c(O)c4)c(O)c3)cc2)cc1` has an MIC of 0.25 µg/mL (broth microdilution; ciprofloxacin-sensitive).
`CCCCCCCCCCn1cc[n+](CCCCCCOc2cc(OCCCCCC[n+]3ccn(CCCCCCCCCC)c3)cc(OCCCCCC[n+]3ccn(CCCCCCCCCC)c3)c2)c1.[Br-].[Br-].[Br-]` gave an MIC of 4 µM (MC4100).
